Measurements of several laboratories.
A part holds a random share of what one study measured. “And” joins repeats or separate records; there may be more than shown.
Chain of UniProt Q15375 (whole entry, looked up): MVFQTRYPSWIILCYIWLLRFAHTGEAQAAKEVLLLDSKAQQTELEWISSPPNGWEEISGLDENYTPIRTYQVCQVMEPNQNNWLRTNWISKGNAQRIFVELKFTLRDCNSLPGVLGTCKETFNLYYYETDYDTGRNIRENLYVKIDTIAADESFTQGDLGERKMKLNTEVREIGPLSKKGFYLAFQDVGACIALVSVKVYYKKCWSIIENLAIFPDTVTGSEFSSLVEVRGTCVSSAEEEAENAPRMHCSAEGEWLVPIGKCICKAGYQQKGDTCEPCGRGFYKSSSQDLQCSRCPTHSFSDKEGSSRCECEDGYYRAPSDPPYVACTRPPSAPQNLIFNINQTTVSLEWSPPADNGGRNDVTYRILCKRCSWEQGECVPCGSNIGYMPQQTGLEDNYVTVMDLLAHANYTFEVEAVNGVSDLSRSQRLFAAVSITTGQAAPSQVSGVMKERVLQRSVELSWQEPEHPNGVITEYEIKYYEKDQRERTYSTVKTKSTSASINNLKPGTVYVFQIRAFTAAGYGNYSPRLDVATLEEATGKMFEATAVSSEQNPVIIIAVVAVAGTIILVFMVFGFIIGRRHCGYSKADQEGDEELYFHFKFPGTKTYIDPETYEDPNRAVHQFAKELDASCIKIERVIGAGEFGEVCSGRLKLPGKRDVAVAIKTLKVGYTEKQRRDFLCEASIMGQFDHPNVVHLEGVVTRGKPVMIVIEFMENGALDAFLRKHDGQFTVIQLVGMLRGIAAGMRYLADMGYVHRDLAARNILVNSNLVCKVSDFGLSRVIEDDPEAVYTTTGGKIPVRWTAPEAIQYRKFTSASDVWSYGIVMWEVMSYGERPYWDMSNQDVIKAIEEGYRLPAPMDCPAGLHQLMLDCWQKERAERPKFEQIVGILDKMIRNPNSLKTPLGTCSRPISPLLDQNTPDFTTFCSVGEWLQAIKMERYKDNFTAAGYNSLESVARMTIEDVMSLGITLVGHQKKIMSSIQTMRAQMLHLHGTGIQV

Study 1 — effect on: enzyme activity; mode: inhibitor; tested at: 0.5 µM; reference: control
SMILES: CN([C@@H](Cc1ccc(OS(=O)(=O)c2cccc3cnccc23)cc1)C(=O)N1CCN(c2ccccc2)CC1)S(=O)(=O)c1cccc2cnccc12
target | remaining activity [%]
Receptor-type tyrosine-protein kinase FLT3 (FLT3, Homo sapiens, UniProt P36888) | 103
Protein kinase C gamma type (PRKCG, Homo sapiens, UniProt P05129) | 95.4
Glycogen synthase kinase-3 alpha (GSK3A, Homo sapiens, UniProt P49840) | 99.8
Cytoplasmic tyrosine-protein kinase BMX (BMX, Homo sapiens, UniProt P51813) | 97.4
Serine/threonine-protein kinase pim-2 (PIM2, Homo sapiens, UniProt Q9P1W9) | 98.5
Ribosomal protein S6 kinase beta-1 (RPS6KB1, Homo sapiens, UniProt P23443) | 100
Ephrin type-B receptor 2 (EPHB2, Homo sapiens, UniProt P29323) | 103
Tyrosine-protein kinase CSK (CSK, Homo sapiens, UniProt P41240) | 96.2
Serine/threonine-protein kinase PAK 2 (PAK2, Homo sapiens, UniProt Q13177) | 99.1
Myosin light chain kinase, smooth muscle (MYLK, Homo sapiens, UniProt Q15746) | 98.2

Study 2 — effect on: enzyme activity; mode: inhibitor; tested at: 77 µM; reference: untreated
Target: DNA polymerase theta, ATPase domain (POLQ, Homo sapiens, UniProt O75417)
Chain of UniProt O75417 (whole entry, unmodified, looked up): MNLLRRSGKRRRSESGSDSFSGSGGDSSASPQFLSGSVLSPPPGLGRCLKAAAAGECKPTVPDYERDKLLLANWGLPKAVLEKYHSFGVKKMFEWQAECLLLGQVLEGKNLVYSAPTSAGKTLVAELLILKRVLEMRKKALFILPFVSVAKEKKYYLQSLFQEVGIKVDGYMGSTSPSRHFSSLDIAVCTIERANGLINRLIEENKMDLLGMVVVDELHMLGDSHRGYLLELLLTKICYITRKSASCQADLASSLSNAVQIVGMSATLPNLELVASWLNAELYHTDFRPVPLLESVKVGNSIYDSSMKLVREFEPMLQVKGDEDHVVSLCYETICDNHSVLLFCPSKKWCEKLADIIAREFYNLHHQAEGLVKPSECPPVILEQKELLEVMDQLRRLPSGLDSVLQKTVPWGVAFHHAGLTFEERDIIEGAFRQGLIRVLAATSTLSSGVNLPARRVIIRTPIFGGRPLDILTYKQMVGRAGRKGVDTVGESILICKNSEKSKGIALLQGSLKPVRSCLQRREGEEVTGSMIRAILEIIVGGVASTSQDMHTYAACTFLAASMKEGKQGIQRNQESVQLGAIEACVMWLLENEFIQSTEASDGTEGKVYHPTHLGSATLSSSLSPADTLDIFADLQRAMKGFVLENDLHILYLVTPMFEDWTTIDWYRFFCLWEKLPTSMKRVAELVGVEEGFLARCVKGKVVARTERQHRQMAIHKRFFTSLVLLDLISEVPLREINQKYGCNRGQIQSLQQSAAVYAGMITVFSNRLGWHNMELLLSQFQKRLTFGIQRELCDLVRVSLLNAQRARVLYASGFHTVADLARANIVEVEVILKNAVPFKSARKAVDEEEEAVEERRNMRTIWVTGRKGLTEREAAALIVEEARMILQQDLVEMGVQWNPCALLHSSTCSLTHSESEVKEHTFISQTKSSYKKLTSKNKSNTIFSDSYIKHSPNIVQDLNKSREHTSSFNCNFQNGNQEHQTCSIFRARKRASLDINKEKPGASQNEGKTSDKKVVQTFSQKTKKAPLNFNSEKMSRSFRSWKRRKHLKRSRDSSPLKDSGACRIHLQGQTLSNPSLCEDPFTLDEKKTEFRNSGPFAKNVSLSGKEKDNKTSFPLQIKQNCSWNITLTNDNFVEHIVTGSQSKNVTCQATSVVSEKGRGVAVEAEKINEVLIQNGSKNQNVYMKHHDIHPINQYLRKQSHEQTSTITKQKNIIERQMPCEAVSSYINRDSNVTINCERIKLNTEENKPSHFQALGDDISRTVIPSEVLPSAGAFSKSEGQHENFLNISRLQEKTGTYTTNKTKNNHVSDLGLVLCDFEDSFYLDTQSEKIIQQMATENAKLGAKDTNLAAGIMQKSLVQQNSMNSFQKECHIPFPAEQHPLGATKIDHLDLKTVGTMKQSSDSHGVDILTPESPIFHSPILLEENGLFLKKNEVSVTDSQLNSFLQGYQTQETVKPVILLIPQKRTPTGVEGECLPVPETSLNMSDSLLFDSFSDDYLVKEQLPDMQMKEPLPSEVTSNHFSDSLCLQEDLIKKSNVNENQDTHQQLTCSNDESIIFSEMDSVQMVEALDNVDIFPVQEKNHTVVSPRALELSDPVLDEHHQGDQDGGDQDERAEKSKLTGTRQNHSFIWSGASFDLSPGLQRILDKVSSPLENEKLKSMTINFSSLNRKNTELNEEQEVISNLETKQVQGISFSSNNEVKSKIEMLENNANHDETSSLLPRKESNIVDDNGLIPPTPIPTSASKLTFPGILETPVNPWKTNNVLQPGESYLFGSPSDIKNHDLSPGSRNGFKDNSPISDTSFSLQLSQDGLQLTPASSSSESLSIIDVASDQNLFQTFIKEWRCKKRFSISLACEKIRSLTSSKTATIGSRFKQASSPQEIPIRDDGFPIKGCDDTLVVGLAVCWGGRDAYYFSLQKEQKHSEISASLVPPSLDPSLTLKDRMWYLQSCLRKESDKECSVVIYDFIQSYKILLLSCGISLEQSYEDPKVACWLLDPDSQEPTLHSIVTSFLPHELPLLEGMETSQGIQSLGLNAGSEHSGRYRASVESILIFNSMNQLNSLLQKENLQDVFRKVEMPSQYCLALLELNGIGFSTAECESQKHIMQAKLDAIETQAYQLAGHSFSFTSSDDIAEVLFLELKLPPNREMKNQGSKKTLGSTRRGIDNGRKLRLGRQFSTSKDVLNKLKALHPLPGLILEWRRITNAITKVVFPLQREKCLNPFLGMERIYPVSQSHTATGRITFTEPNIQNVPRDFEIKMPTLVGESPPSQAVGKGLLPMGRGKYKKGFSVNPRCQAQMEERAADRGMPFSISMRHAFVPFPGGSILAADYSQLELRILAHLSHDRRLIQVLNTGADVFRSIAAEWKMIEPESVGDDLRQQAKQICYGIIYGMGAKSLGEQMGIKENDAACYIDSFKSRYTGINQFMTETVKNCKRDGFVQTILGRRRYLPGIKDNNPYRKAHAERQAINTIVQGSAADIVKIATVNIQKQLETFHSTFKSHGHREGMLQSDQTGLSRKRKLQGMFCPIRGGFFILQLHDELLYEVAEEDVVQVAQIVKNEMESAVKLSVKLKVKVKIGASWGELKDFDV
Compound | remaining activity
CCOC(=O)[N-]c1c[n+](N2CCOCC2)no1 | 97.1% and 100%
COc1ccccc1S(=O)(=O)Nc1ccc2c(c1)CN(C)C(=O)N2 | 99.2%
CC(C)(C)c1ccc(S(=O)(=O)/C=C/C#N)cc1 | 98.5%
CN1CCC(=C2c3ccccc3CCc3cccnc32)CC1 | 86.9%
CC(=O)N[C@H]1[C@H]([C@H](O)[C@H](O)CO)OC(C(=O)O)=C[C@@H]1NC(=N)N | 102%
COc1ccc(O)cc1 | 91.1%
Cn1nc(C(C)(C)C)cc1C(=O)N[C@@H](Cc1cccc(Cl)c1)C(=O)NCC#N | 101%
COc1ccc(CCN(C)CCc2ccc(OC)c(OC)c2)cc1OC | 105%

Study 3 — effect on: enzyme activity; mode: inhibitor; tested at: 10 µM
Target: Calcium/calmodulin-dependent protein kinase type II subunit alpha (CAMK2A, Homo sapiens, UniProt Q9UQM7)
Chain of UniProt Q9UQM7 (whole entry, looked up): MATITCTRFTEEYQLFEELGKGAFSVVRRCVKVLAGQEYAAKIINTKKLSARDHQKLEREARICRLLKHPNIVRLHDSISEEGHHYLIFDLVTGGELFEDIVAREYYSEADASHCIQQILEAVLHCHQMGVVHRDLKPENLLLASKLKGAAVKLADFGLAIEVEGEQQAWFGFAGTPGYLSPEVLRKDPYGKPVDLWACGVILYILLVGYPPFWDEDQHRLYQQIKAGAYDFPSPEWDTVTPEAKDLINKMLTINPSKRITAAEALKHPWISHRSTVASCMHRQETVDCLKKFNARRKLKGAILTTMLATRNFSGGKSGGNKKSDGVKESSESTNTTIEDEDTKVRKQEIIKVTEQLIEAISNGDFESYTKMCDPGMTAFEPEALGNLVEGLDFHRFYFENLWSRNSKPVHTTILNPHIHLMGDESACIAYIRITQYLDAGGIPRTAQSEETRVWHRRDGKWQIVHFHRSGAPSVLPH
Compound | inhibition [%]
COc1cc(C[C@H](CO[C@@H]2O[C@H](CO)[C@@H](O)[C@H](O)[C@H]2O)[C@@H](CO[C@@H]2O[C@H](CO)[C@@H](O)[C@H](O)[C@H]2O)Cc2ccc(O)c(OC)c2)ccc1O | 24
COc1cccc(O)c1-c1cc(=O)c2c(O)c(OC)c(OC)c(OC)c2o1 | -10
C[C@@H]1CC[C@@]2(OC1)O[C@H]1C[C@H]3[C@@H]4CC=C5C[C@@H](O[C@@H]6O[C@H](CO)[C@@H](O)[C@H](O)[C@H]6O[C@@H]6O[C@@H](C)[C@H](O)[C@@H](O)[C@H]6O)CC[C@]5(C)[C@H]4CC[C@]3(C)[C@H]1[C@@H]2C | 4
CC(=O)CC[C@@H](C)O[C@@H]1O[C@@H](C)[C@H](O)C[C@H]1O | -4
CCCCC(=O)O[C@H]1CC[C@H]2[C@@H]3CCc4cc(O)ccc4[C@H]3CC[C@]12C | -10
COc1cc(OC)c2c(c1)OC(c1ccc(OC)c(OC)c1)CC2O (stereo not drawn) | -5
O=C(O)C[C@@H]1C(=O)O[C@H]2[C@@H]3OC(=O)c4cc(O)c(O)c(O)c4-c4c(cc(O)c(O)c4O)C(=O)OC[C@H]2O[C@@H](OC(=O)c2cc(O)c(O)c(O)c2)[C@@H]3OC(=O)c2cc(O)c(O)c3c2[C@H]1[C@H](O)C(=O)O3 | -74
NCC(=O)CCC(=O)O | 2
O=C(O)CNC(=O)c1ccco1 | 42

Study 4 — technique: competition with immobilised ligand; tested at: 1 µM
SMILES: O=C(O)[C@@H]1[C@@H](Cn2nnc3ccccc3c2=O)CC[C@H]1C(=O)c1ccc(OCCC2CCOCC2)cc1
target | effect on | remaining binding [%]
Dual specificity protein kinase TTK (TTK, Homo sapiens, UniProt P33981) | cell-free assay | 89
Hormonally up-regulated neu tumor-associated kinase (HUNK, Homo sapiens, UniProt P57058) | cell-free assay | 100
Macrophage-stimulating protein receptor (MST1R, Homo sapiens, UniProt Q04912) | cell-free assay | 91
Phosphatidylinositol 4,5-bisphosphate 3-kinase catalytic subunit beta isoform (PIK3CB, Homo sapiens, UniProt P42338) | cell-free assay | 66
SRSF protein kinase 3 (SRPK3, Homo sapiens, UniProt Q9UPE1) | cell-free assay | 100
Phosphatidylinositol 4-kinase beta (PI4KB, Homo sapiens, UniProt Q9UBF8) | cell-free assay | 83
Cyclin-dependent kinase 11B (CDK11B, Homo sapiens, UniProt P21127) | cell-free assay | 99
Phosphatidylinositol 4,5-bisphosphate 3-kinase catalytic subunit delta isoform (PIK3CD, Homo sapiens, UniProt O00329) | cell-free assay | 99
Calcium/calmodulin-dependent protein kinase type IV (CAMK4, Homo sapiens, UniProt Q16566) | cell-free assay | 75
eIF-2-alpha kinase GCN2, C-terminal kinase domain (EIF2AK4, Homo sapiens, UniProt Q9P2K8, S808G) | cell-free assay | 100
Receptor tyrosine-protein kinase erbB-3 (ERBB3, Homo sapiens, UniProt P21860) | cell-free assay | 94
Serine/threonine-protein kinase Sgk3 (SGK3, Homo sapiens, UniProt Q96BR1) | cell-free assay | 100
Serine/threonine-protein kinase N1 (PKN1, Homo sapiens, UniProt Q16512) | cell-free assay | 97
Testis-specific serine/threonine-protein kinase 3 (TSSK3, Homo sapiens, UniProt Q96PN8) | cell-free assay | 100
Serine/threonine-protein kinase B-raf (BRAF, Homo sapiens, UniProt P15056) | cell-free assay | 100
Calcium/calmodulin-dependent protein kinase type II subunit gamma (CAMK2G, Homo sapiens, UniProt Q13555) | cell-free assay | 100
Tyrosine-protein kinase ABL1, non-phosphorylated (ABL1, Homo sapiens, UniProt P00519, F317L) | cell-free assay | 86
Phosphatidylinositol 4-phosphate 3-kinase C2 domain-containing subunit beta (PIK3C2B, Homo sapiens, UniProt O00750) | cell-free assay | 100
Serine/threonine-protein kinase DCLK3 (DCLK3, Homo sapiens, UniProt Q9C098) | cell-free assay | 100
Myosin-IIIa (MYO3A, Homo sapiens, UniProt Q8NEV4) | binding | 93
Ephrin type-A receptor 7 (EPHA7, Homo sapiens, UniProt Q15375) | cell-free assay | 100
Fibroblast growth factor receptor 4 (FGFR4, Homo sapiens, UniProt P22455) | cell-free assay | 99
Cyclin-dependent kinase 14 (CDK14, Homo sapiens, UniProt O94921) | cell-free assay | 100
Receptor-interacting serine/threonine-protein kinase 1 (RIPK1, Homo sapiens, UniProt Q13546) | cell-free assay | 100

Excerpt of the above (study 4):
target | effect on | remaining binding [%]
Phosphatidylinositol 4,5-bisphosphate 3-kinase catalytic subunit delta isoform (PIK3CD, Homo sapiens, UniProt O00329) | cell-free assay | 99
Calcium/calmodulin-dependent protein kinase type IV (CAMK4, Homo sapiens, UniProt Q16566) | cell-free assay | 75
eIF-2-alpha kinase GCN2, C-terminal kinase domain (EIF2AK4, Homo sapiens, UniProt Q9P2K8, S808G) | cell-free assay | 100
Receptor tyrosine-protein kinase erbB-3 (ERBB3, Homo sapiens, UniProt P21860) | cell-free assay | 94
Serine/threonine-protein kinase Sgk3 (SGK3, Homo sapiens, UniProt Q96BR1) | cell-free assay | 100
Serine/threonine-protein kinase N1 (PKN1, Homo sapiens, UniProt Q16512) | cell-free assay | 97
